Measured values from different studies.
Protocols differ between the studies behind these lines. Numbers after ± are the reported error.
B1: IL34 19-242 (Homo sapiens, UniProt Q6ZMJ4); sequence looked up; chain LGNEPLEMWPLTQNEECTVTGFLRDKLQYRSRLQYMKHYFPINYKISVPYEGVFRIANVTRLQRAQVSERELRYLWVLVSLSATESVQDVLLEGHPSWKYLQEVETLLLNVQQGLTDVEVSPKVESVLSLLNAPGPNLKLVRPKALLDNCFRVMELLYCSCCKQSSVLNWQDCEVPSPQSCSPEPSLQYAATQLYPPPPWSPSSPPHSTGSVRPVRAQGEGLLP
B2: SIRT1 del7-83 (Homo sapiens, UniProt Q96EB6); sequence looked up; chain MADEAAAAAGGEQEAQATAAAGEGDNGPGLQGPSREPPLADNLYDEDDDDEGEEEEEAAAAAIGYRDNLLFGDEIITNGFHSCESDEEDRASHASSSDWTPRPRIGPYTFVQQHLMIGTDPRTILKDLLPETIPPPELDDMTLWQIVINILSEPPKRKKRKDINTIEDAVKLLQECKKIIVLTGAGVSVSCGIPDFRSRDGIYARLAVDFPDLPDPQAMFDIEYFRKDPRPFFKFAKEIYPGQFQPSLCHKFIALSDKEGKLLRNYTQNIDTLEQVAGIQRIIQCHGSFATASCLICKYKVDCEAVRGDIFNQVVPRCPRCPADEPLAIMKPEIVFFGENLPEQFHRAMKYDKDEVDLLIVIGSSLKVRPVALIPSSIPHEVPQILINREPLPHLHFDVELLGDCDVIINELCHRLGGEYAKLCCNPVKLSEITEKPPRTQKELAYLSELPPTPLHVSEDSSSPERTSPPDSSVIVTLLDQAAKSNDDLDVSESKGCMEEKPQEVQTSRNVESIAEQMENPDLKNVGSSTGEKNERTSVAGTVRKCWPNRVAKEQISRRLDGNQYLFLPPNRYIFHGAEVYSDSEDDVLSSSSCGSNSDSGTCQSPSLEEPMEDESEIEEFYNGLEDEPDVPERAGGAGFGTDGDDQEAINEAISVKQEVTDMNYPSNKS
B3: CRYBB1 149-252 (Homo sapiens, UniProt P53674); sequence looked up; chain HKISLFEGANFKGNTIEIQGDDAPSLWVYGFSDRVGSVKVSSGTWVGYQYPGYRGYQYLLEPGDFRHWNEWGAFQPQMQSLRRLRDKQWHLEGSFPVLATEPPK
B4: Mei5/Sae3 (Saccharomyces cerevisiae); chain 1 MHNQEEWLDKDKTLVNEEENTCINHSYTKKDTNNYRVGKSGIKDLKKPTNQKEIAIKNRELTKQLTLLRQENNHLQQACKILSENKIIENRKSIEKWRTICEMELSFILNSTLIKINRMGGYKDFLEKEMEAKKRRLEYQIDNGMEDQICEIKESDDFRQLSEVEKQEWESQMNEQLKELEKKKIAELEKLNKVLHDSEGKDFGMAELCTRLKLDYSLIFPQ; chain 2 MNYLETQLNKKQKQIQEYESMNGNLIKMFEQLSKEKKNDETPKKISSTYIKELKEYNELRDAGLRLAQIIADEKQCKIKDVFEEIGYSMKD
UniProt P32776, sequence (whole entry, unmodified, looked up): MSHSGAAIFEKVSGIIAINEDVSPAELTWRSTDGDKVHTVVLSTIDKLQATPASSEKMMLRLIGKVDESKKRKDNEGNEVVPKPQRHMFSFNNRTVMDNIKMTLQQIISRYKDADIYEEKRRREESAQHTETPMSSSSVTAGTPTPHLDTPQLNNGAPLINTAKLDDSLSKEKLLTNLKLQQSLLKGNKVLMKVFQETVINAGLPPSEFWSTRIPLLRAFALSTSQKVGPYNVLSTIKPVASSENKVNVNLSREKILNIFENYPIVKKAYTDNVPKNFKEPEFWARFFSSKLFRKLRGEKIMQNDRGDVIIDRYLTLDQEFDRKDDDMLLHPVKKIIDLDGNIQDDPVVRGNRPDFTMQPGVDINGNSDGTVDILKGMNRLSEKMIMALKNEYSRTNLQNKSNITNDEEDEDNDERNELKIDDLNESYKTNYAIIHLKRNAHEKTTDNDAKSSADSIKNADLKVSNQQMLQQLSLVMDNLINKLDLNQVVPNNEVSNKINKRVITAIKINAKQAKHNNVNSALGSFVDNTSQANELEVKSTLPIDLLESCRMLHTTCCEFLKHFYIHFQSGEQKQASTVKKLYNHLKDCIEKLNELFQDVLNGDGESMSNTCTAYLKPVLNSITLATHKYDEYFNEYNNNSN
UniProt P05813, sequence (whole entry, looked up): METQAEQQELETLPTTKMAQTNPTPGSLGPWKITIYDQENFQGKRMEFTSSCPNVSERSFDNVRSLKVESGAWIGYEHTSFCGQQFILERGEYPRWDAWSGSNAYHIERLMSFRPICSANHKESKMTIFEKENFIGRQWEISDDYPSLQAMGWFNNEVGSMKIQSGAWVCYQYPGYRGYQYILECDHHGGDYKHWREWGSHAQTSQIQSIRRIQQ
UniProt O75899, sequence (whole entry, looked up): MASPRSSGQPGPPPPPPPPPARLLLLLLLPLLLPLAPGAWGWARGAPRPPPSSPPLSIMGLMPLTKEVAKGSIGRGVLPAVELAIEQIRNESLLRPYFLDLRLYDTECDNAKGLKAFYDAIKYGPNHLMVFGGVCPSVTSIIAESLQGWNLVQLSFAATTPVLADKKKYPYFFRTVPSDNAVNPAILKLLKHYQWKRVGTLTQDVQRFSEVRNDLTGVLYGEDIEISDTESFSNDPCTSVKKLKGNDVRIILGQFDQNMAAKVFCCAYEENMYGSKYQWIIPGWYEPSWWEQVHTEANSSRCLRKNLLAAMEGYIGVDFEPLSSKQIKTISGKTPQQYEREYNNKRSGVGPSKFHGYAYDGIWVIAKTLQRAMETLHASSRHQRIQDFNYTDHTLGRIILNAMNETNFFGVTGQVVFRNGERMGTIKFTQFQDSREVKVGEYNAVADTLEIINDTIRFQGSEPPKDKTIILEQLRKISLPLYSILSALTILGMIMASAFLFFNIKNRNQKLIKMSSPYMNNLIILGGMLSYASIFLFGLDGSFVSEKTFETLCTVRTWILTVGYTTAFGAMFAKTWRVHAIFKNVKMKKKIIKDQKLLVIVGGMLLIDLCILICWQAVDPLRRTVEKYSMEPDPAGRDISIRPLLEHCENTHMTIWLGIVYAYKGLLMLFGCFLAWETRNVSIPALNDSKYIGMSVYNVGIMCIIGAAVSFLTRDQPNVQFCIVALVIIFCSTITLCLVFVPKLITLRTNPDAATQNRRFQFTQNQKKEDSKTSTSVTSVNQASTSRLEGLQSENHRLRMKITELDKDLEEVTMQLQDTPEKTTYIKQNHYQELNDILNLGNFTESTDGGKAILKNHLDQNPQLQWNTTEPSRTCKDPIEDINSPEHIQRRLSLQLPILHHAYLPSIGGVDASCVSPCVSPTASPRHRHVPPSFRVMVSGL
UniProt P25453, sequence (whole entry, looked up): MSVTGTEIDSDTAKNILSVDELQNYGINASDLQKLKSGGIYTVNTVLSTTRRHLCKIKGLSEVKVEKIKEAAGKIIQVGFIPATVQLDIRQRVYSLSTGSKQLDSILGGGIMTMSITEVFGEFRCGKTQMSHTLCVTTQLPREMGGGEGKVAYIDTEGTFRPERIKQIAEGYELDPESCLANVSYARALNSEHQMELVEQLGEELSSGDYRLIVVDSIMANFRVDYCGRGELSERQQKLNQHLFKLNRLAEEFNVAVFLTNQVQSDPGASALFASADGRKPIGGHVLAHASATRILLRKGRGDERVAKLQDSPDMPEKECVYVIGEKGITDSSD
UniProt O14746, sequence (whole entry, looked up): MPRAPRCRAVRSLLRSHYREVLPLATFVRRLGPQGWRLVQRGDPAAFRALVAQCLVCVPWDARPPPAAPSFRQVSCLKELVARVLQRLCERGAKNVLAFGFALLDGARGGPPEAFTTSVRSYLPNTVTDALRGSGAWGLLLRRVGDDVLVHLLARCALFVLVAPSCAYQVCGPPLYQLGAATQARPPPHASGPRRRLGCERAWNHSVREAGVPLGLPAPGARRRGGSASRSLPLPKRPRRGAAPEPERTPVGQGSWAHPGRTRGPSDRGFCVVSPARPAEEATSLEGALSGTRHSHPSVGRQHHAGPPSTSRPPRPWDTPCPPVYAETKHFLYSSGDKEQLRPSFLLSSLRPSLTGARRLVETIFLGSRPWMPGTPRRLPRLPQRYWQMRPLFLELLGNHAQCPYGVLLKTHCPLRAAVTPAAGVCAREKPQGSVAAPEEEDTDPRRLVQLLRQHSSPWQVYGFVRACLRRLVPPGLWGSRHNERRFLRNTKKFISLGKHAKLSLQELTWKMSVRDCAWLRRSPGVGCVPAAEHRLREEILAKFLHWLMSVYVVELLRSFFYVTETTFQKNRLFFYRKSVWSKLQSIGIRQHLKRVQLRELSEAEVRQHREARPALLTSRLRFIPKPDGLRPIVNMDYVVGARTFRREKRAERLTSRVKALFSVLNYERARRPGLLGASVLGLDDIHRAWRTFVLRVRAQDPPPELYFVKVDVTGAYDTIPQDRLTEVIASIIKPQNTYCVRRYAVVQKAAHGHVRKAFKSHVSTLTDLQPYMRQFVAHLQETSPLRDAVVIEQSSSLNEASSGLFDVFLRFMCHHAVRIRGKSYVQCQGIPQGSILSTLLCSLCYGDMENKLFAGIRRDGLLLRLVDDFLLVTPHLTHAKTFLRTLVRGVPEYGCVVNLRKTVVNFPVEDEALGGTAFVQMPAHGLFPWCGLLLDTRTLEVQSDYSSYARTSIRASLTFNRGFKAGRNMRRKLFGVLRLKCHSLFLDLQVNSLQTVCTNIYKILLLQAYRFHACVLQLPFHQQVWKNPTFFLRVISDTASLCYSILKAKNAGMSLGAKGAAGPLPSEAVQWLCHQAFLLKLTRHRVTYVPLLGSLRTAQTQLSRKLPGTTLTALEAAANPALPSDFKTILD
UniProt Q8DLJ8, sequence (whole entry, looked up): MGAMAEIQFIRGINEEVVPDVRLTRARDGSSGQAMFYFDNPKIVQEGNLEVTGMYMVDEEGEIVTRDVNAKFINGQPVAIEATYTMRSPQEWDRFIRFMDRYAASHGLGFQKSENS
UniProt O60656, sequence (whole entry, looked up): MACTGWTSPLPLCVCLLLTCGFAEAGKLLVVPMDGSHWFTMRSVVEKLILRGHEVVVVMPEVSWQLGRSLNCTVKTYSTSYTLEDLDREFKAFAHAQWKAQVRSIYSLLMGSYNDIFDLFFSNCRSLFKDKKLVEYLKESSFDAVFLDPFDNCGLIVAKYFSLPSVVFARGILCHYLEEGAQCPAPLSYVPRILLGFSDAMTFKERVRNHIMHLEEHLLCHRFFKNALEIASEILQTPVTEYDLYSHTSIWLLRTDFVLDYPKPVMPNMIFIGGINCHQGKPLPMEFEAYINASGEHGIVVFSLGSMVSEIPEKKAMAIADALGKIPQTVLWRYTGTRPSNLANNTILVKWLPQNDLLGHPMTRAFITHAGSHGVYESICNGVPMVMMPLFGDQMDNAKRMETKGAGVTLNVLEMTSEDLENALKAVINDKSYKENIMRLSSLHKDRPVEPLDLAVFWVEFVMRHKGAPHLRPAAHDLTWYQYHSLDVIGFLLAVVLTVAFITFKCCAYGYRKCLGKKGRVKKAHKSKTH
UniProt P07333, sequence (whole entry, looked up): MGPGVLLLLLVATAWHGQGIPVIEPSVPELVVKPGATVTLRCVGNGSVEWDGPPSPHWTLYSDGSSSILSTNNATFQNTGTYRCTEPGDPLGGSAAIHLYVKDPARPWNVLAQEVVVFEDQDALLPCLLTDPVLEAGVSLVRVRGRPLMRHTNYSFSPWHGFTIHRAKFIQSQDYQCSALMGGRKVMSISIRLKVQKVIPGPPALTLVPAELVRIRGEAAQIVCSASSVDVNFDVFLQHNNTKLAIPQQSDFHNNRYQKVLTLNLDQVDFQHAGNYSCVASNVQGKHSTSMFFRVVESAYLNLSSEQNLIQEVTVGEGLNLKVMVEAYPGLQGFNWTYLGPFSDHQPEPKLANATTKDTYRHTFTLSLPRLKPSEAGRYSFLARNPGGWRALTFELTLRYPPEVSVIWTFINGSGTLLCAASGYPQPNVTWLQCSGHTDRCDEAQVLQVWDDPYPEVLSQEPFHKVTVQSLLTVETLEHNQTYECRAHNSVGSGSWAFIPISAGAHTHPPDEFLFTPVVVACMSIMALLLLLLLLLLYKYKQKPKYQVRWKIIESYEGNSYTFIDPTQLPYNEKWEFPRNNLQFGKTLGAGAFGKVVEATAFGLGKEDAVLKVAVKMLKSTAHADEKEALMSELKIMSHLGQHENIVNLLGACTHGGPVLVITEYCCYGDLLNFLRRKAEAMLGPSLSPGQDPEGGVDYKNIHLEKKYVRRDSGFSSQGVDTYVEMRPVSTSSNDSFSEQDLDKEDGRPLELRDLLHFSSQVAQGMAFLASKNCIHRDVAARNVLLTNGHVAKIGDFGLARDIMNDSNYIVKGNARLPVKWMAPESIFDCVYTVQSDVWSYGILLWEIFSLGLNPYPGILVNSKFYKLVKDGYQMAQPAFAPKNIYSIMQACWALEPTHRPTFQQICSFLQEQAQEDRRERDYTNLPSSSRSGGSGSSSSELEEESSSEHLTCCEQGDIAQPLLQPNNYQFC

RCVRLHESCLGQQVPCCDPCATCYCRFFNAFCYCRKLGTAMNPCSRT (AGRP 86-132 (Homo sapiens, UniProt O00253); sequence looked up) — inverse agonist EC50 (MC4R D189E (Homo sapiens, UniProt P32245); cAMP, inverse agonist, AlphaScreen; HEK293; apparent): 4.4 nM
LHNHYT — inhibition (peptide, human polyclonal IgM RF SOR; concentration not given, 5 µg/mL mAb II-481 coated, with: RF at 50% max binding concentration): 0%
Reck R69A/P71A/Y73A (Mus musculus) — Wnt signalling activity (Gpr124; luciferase reporter; with: Wnt7a; baseline: wild-type Reck, higher = more activity): 50%
B1 (IL34 19-242) — koff (CSF1R Fc fusion D1-D5 20-512 (Homo sapiens, UniProt P07333); SPR; pH 7.4, NaCl 0.15 M): 0.0004 s⁻¹
UGT1A9 (Homo sapiens, UniProt O60656) — Vmax/Km (CCN(CC)C(=O)/C(C#N)=C/c1cc(O)c(O)c([N+](=O)[O-])c1; steady-state kinetics; pH 7.4, 37 °C): 10200 µL/min/mg
psbB C terminus (Thermosynechococcus elongatus) — koff (psb28 2-116 (Thermosynechococcus elongatus, UniProt Q8DLJ8); NMR titration; slow exchange): 10.1 ± 0.16 s⁻¹
TPP1 fragment del NOB (human) — telomerase processivity decrease (TERT (Homo sapiens, UniProt O14746); direct primer extension; super-telomerase extract; with: POT1; baseline: TPP1-N WT, higher = lower processivity): 38%
FGF14 fragment, N-terminal adamantanecarbonyl, Glu tert-butyl ester, C-terminal ethyl ester (Homo sapiens) — koff (FGF14 64-252 (Homo sapiens, UniProt Q92915-2); SPR): 0.0205 s⁻¹
CIKVAVS — inhibition (peptide, human polyclonal IgM RF WEAK; concentration not given, 5 µg/mL mAb II-481 coated, with: RF at 50% max binding concentration): 0%
B2 (SIRT1 del7-83) — enhancement of activity (TDG (Homo sapiens, UniProt Q13569); TDG glycosylase activity; 2 nM, with: caC/G-DNA; baseline: acetylated TDG, higher = greater enhancement): 2.5 fold
PGYPNGLLSGDEDFSSIADMDASALLSQISS (RELA 521-551 L523Y/F542A (Homo sapiens, UniProt Q04206); sequence looked up) — affinity decrease (TFB1 1-115 (Saccharomyces cerevisiae, UniProt P32776); ITC; peptide; 25 °C; baseline: wild-type p65TA1, higher = weaker binding): > 100 fold
B3 (CRYBB1 149-252) — subunit exchange rate (CRYBA1, Alexa Fluor 488 label (Homo sapiens, UniProt P05813); FRET; pH 7.5, 37 °C, 100 mM NaCl): 0.0344 ± 0.003 min⁻¹
clr4 F256A (Schizosaccharomyces pombe) — relative HMTase activity (H3C1 fragment, K14 ubiquitin isopeptide; H3K9 methylation, MTase-Glo; baseline: wild-type Clr4, lower = less activity): 60%
GABBR1 GABAB1b isoform, full length E423R (Homo sapiens) — cell surface expression (GABBR2 (Homo sapiens, UniProt O75899); anti-Flag M1 on intact cells; baseline: WT/WT heterodimer, higher = more surface expression): 87%
B4 (Mei5/Sae3) — apparent Dmc1 dissociation rate (DMC1 (Saccharomyces cerevisiae, UniProt P25453); smFRET; baseline: Dmc1 alone, higher = faster dissociation): 2 fold

Repeated from above:
LHNHYT — inhibition (peptide, human polyclonal IgM RF SOR; concentration not given, 5 µg/mL mAb II-481 coated, with: RF at 50% max binding concentration): 0%
Reck R69A/P71A/Y73A (Mus musculus) — Wnt signalling activity (Gpr124; luciferase reporter; with: Wnt7a; baseline: wild-type Reck, higher = more activity): 50%
